Assay results collected from several papers.
Numbered parts are unrelated; each lists some results of a single study. Changes are numbered by the printed parent chain.

Sample 1
Target: Centromere-binding protein 1, full length, N-terminal tag (CBF1, Saccharomyces cerevisiae, UniProt P17106, residues 1-351)
Chain of UniProt P17106 (whole entry, looked up): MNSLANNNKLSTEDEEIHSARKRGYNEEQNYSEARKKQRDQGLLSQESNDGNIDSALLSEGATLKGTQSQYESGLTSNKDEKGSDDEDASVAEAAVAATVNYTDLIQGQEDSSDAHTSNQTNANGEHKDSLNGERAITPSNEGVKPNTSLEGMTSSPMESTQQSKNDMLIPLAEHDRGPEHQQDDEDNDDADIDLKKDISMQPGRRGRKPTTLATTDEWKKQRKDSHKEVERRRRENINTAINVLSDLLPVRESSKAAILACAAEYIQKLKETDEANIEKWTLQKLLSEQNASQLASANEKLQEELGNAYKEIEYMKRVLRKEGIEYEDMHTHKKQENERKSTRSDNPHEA
Technique: protein-binding microarray
Molecule type: double-stranded DNA, one strand shown
Sample: in vitro
Concentration: 0.8 µM
Setting: whole 60-bp probe, no competitor
Reading: higher = stronger binding
All sequences stand within: … GTCTTGATTCGCTTGACGCTGCTG
`CTATGAGTGGAGTGTCACCTCAGACGACGTGTCTTC` has a fluorescence intensity of 900 a.u.
`GAAAATATTTATCGTCACGAATAAATCCCGTGATAG` has a fluorescence intensity of 1860 a.u.
`CTAACAGAAACAAATCACATGTTTCCTTGGCAGTTC` gave a fluorescence intensity of 2620 a.u.
With `GAATAGTAGGTATACGTGACAAATATAAGCGTATAG` the fluorescence intensity was 905 a.u.
`CTAGGACTGTATATCCATGTGGGAAATGCCCAATTC` has a fluorescence intensity of 501 a.u.
For `CCTAACTACTATAATCAGGTATCATAGCTTCGTACA`, the fluorescence intensity was 502 a.u.
With `CCTAACTACTATAGTCACATAAAATAGCTTCGTACA` the fluorescence intensity was 548 a.u.
For `GAATTCATCGTCGATCATGATGATTATCAGCCGTAG`, the fluorescence intensity was 530 a.u.

Sample 2
Target: ABI1, truncated, D143A, DHFR fusion (Arabidopsis thaliana)
Technique: DHFR PCA, deep sequencing
Sample: yeast
Setting: methotrexate growth selection, single substitutions
With: (+)-ABA 0.032 µM
Relative to: wild-type fitted maximum
Reading: higher = stronger binding
Parent: PYL1, truncated, DHFR fusion (Arabidopsis thaliana); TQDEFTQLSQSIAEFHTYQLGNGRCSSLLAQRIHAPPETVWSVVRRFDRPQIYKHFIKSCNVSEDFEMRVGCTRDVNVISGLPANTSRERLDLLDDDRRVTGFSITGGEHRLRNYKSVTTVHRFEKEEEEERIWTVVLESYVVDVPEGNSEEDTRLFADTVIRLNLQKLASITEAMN
Under “relative binding score”, `V100D` is recorded as -0.127%.
`T135Q` — result for “relative binding score”: -4.73%.
For `W41K`, “relative binding score” read -2.19%.
`E147P`: “relative binding score” 34.2%.
Under “relative binding score”, `N85Y` is recorded as 64.6%.
`Q31K` — result for “relative binding score”: 8.63%.
`V76N` — result for “relative binding score”: 1.37%.
`D159S`: “relative binding score” -3.87%.

Sample 3
Target: vanadate, free oxyanion
Technique: microfluidic competitive inhibition
Sample: in vitro, cell-free expressed
Concentration: not given
Setting: derived from inhibition constants, unchanged parent 676 nM
Reading: lower = stronger binding
Parent: PafA, mature enzyme, eGFP fusion (Elizabethkingia meningoseptica, UniProt Q9KJX5); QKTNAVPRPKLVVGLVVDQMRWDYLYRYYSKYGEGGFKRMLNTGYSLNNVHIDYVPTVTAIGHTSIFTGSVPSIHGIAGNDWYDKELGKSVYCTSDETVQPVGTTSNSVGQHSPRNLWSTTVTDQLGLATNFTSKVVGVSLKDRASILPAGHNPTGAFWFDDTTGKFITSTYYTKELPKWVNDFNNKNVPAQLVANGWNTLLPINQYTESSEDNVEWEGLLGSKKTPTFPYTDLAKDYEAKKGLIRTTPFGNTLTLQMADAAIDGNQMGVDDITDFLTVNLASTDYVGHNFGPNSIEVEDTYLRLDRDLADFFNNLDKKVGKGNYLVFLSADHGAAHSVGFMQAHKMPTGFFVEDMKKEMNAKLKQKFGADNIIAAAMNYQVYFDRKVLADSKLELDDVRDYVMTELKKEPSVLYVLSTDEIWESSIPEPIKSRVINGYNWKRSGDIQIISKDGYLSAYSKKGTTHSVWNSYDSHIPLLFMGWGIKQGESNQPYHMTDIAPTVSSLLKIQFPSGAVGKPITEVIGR
`T284V` — result for “oxyanion analog dissociation constant”: 1 µM.
Under “oxyanion analog dissociation constant”, `Y380V` is recorded as 1.07 µM.
Under “oxyanion analog dissociation constant”, `T301V` is recorded as 614 nM.
Under “oxyanion analog dissociation constant”, `H289V` is recorded as 37 µM.
`P154G` — result for “oxyanion analog dissociation constant”: 787 nM.
`S330G`: “oxyanion analog dissociation constant” 869 nM.
`S113G`: “oxyanion analog dissociation constant” 607 nM.
Under “oxyanion analog dissociation constant”, `G350A` is recorded as 780 nM.
`K166V` — result for “oxyanion analog dissociation constant”: 1.07 µM.
`N48V`: “oxyanion analog dissociation constant” 2.61 µM.
For `W441G`, “oxyanion analog dissociation constant” read 407 nM.
`A157G`: “oxyanion analog dissociation constant” 548 nM.
`G138A` — result for “oxyanion analog dissociation constant”: 515 nM.
`E429V` — result for “oxyanion analog dissociation constant”: 561 nM.
Under “oxyanion analog dissociation constant”, `E410G` is recorded as 811 nM.
For `G197A`, “oxyanion analog dissociation constant” read 1.66 µM.
Under “oxyanion analog dissociation constant”, `N280V` is recorded as 43.8 µM.
For `D385G`, “oxyanion analog dissociation constant” read 706 nM.
Under “oxyanion analog dissociation constant”, `K462G` is recorded as 774 nM.
Under “oxyanion analog dissociation constant”, `T130V` is recorded as 910 nM.
`H333V`: “oxyanion analog dissociation constant” 1.16 µM.
`D53V`: “oxyanion analog dissociation constant” 685 nM.
`K393V`: “oxyanion analog dissociation constant” 865 nM.
Under “oxyanion analog dissociation constant”, `A376G` is recorded as 694 nM.
Under “oxyanion analog dissociation constant”, `I374V` is recorded as 949 nM.

Sample 4
Target: Transcriptional repressor CTCF (CTCF, Homo sapiens, UniProt P49711, residues 1-727, full length assumed)
Chain of UniProt P49711 (whole entry, looked up): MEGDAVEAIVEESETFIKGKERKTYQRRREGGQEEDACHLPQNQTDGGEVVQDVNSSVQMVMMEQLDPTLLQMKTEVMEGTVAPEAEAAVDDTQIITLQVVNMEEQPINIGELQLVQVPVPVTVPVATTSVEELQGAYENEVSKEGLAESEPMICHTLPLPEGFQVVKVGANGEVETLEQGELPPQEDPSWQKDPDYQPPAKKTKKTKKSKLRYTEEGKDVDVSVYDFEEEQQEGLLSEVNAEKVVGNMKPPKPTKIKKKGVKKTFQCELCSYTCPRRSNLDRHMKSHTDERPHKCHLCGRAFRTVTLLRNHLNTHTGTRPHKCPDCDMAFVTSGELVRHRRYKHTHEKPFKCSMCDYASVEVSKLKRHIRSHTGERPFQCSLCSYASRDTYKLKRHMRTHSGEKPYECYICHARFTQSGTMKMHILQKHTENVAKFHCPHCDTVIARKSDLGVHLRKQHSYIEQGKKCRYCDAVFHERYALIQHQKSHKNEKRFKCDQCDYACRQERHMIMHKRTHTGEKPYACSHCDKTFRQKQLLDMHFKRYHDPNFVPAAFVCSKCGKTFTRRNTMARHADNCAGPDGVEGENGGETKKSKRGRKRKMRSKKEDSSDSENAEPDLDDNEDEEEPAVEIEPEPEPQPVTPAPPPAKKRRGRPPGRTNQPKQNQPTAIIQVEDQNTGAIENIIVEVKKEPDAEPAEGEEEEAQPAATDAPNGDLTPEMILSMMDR
Technique: protein-binding microarray
Molecule type: double-stranded DNA, one strand shown
Sample: in vitro
Concentration: not given
Setting: k-mer, scored over probes, only values ≥0.25
Reading: higher = stronger binding
With `TAATACCA` the E-score was 0.255.
For `GTAATCTA`, the E-score was 0.349.
The E-score of `ACGTATAC` is reported as 0.255.
The E-score of `CGCTTATA` is reported as 0.304.
With `ATAATTTA` the E-score was 0.427.
The E-score of `ATTACAAT` is reported as 0.295.
The E-score of `GTACTACA` is reported as 0.281.
With `AGATTAAT` the E-score was 0.256.

Sample 5
Target: CCNE2, cyclin fold, Cln2 fusion (human)
Technique: yeast growth competition, sequencing
Sample: yeast
Setting: strong parent motif
Relative to: not given
Reading: higher = stronger binding
Parent: viral docking peptide; TSVRRALFTGGSD; partner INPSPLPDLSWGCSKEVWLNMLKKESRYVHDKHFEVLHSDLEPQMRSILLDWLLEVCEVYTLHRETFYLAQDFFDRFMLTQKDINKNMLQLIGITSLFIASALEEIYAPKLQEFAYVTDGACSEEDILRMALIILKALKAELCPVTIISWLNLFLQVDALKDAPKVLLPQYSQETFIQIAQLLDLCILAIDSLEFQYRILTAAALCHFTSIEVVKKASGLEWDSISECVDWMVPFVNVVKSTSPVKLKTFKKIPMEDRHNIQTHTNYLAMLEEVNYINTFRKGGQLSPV
`TSVRRALMTGGSD [F8M]` — result for “normalised enrichment score”: 0.427.
`TSVRRALATGGSD [F8A]`: “normalised enrichment score” 0.364.
`TSVHRALFTGGSD [R4H]`: “normalised enrichment score” -0.118.
`TSVRRWLFTGGSD [A6W]` — result for “normalised enrichment score”: 0.875.

A few entries again (sample 2):
For `W41K`, “relative binding score” read -2.19%.
`E147P`: “relative binding score” 34.2%.
Under “relative binding score”, `N85Y` is recorded as 64.6%.
`Q31K` — result for “relative binding score”: 8.63%.
